Measurements of several laboratories.
Parts stem from different laboratories: compare values within a part only. “And” joins repeats or separate records; there may be more than shown.
Chain of UniProt P17106 (whole entry, looked up): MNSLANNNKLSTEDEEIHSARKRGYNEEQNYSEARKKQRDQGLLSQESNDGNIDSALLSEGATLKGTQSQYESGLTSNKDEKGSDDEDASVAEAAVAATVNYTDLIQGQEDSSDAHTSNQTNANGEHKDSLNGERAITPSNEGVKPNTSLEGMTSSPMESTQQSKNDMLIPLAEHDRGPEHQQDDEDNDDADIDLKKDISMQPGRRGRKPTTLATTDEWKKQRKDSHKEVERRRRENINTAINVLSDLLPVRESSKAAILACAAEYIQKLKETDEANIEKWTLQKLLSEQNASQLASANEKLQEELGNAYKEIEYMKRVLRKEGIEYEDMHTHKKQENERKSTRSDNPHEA

Study 1
Organism: Sarcocystis neurona
Read-out: parasite growth
Tested at: 10 µM
Time: 96 h
Quantity: inhibition
NC(=O)OCCCc1ccccc1: -19.1%
C[C@H]1CCC[C@H](O)CCCCCc2cc(O)cc(O)c2C(=O)O1: -5%
c1ccc(Cn2ccnc2)cc1: -9.6%

Study 2
Target: 5-hydroxytryptamine receptor 2A (HTR2A, Homo sapiens, UniProt P28223)
Chain of UniProt P28223 (whole entry, looked up): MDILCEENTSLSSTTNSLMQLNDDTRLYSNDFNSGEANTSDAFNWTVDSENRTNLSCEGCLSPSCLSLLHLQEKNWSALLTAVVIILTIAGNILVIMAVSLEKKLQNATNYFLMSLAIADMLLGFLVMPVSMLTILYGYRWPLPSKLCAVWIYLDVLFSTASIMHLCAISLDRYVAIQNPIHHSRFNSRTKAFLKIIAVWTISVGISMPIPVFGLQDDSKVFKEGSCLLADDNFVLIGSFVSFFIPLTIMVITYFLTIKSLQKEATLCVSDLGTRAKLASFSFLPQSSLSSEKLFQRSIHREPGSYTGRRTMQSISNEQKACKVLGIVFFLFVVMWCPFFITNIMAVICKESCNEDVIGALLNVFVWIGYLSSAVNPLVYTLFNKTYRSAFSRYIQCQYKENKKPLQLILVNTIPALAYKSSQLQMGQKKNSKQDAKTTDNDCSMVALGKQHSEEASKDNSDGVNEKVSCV
Read-out: ligand displacement
Tested at: 10 µM
Quantity: inhibition
CN(C)[C@H]1CCN(c2cc(-c3ccccc3)nc3ccnn23)C1: 23.5%
C[C@@]1(Cc2ccc(C#N)cc2)C(=O)N(c2cc(Cl)cc(Cl)c2)c2ncc(C(=O)NC3(c4nc(C5CCC5)no4)CC3)n21: 31.9%
Cc1c(NC(=O)c2cc(C(N)=O)nc3cc(F)ccc23)c(C(F)(F)F)nn1Cc1ccc(C#N)cc1: 14.3%
Cn1cncc1[C@@](O)(COc1ccc(C#N)cc1-c1ccc(OC(F)(F)F)cc1)c1ccc(C#N)cc1: -4.18%
CN(C)C(=O)Cn1cc(-c2nc([C@@](C)(c3ccc(-c4cnc(N)nc4)cc3)C3CC3)no2)cn1: -11.9%
CS(=O)(=O)N1CCCC(NC(=O)[C@H](CCC2CCCCC2)NC(=O)c2ccc(CNC(=O)c3cnc4ccccn34)cc2)C1 (stereo partly shown): 3.03%
c1ccc(C2CCN(c3cnc4c(N5CCOCC5)nccn34)CC2)cc1: 13.1%
CS(=O)(=O)NCC[C@H](NC(=O)c1cncc2c1cnn2-c1ccc(F)cc1)c1ccnc(S(C)(=O)=O)c1: 11.8%
CCOc1ccc(S(=O)(=O)Nc2ccc(Cl)cc2C#Cc2cnc(C(=O)O)cc2OC)c2ncccc12: -0.22%
N#CC1(c2ccccn2)CCN(Cc2cc(C(=O)O)c(=O)n3ccccc23)CC1: -17%
CCC(F)(F)c1cc(N2CCC(S(C)(=O)=O)CC2)nc2sc(C(N)=O)c(N)c12: 6.1%
C[C@H](c1ccc(F)cc1)N(Cc1ccc(Cl)c(C(=O)O)c1)C(=O)c1cnc2ccccc2c1: -2.34%
CNC(=N)NCCC[C@H](NC(=O)[C@H](CC(C)C)NC(=O)NNC(=O)[C@H](Cc1ccccc1)NC(=O)[C@H](CO)NC(=O)[C@H](CC(N)=O)NC(=O)[C@@H](Cc1ccncc1)NC(=O)[C@H](N)Cc1ccc(O)cc1)C(=O)N[C@@H](Cc1ccccc1)C(N)=O: -11.2%
CCC(=O)N[C@H]1CC[C@@H](C(=O)N(C)c2ccc(-c3nc4ccccc4o3)cc2)C1: 2.34%
Nc1nc(NCc2ccccc2)nc(-c2cccc(CO)c2)n1: 1.28%
C[C@@H](NC(=O)Nc1cc2[nH]ncc2c(CO)n1)c1ccccc1: 7.44%
C[C@H](c1ccnc(Nc2nc3ccc(-c4cc(N(C)C)ncn4)cc3[nH]2)c1)N1CCN(C(=O)CC(F)(F)F)CC1: -11.1%
CN1C(=O)[C@@H](N2CCc3cn(Cc4ccccc4)nc3C2=O)COc2ccccc21: 3.8%
CCOc1cc(N2C3COCC2CN(C(=O)[C@H]2C[C@H](O)CN2c2ccc(Cl)cc2)C3)ccc1Cl: 6.74%
C[C@H](c1cccc(C#N)c1)n1cc(Cl)cc(C(N)=O)c1=N: -3.17%
NC(=O)c1ccc2nc(-c3ccc(C4(N)CCC4)cc3)c(-c3ccccc3)n2n1: 8.08%
COc1cc(C(=O)O)ncc1C#Cc1ccccc1NS(=O)(=O)c1cccc2c(N(C)C)ccnc12: 9.61%
Cc1cc2c(-c3ccco3)cnc(N[C@@H]3CCN(C)C[C@H]3C(=O)NC3CCCCC3)c2[nH]c1=O: -5.01%
COCCOc1nc(-c2ccc(Cl)nc2)nc2c1CN(C(=O)c1ncn3ccccc13)CC2: -1.4%
CN1CCN(C(=O)C(C)(C)c2ccc(C(=O)Nc3cn4cc(-c5cc(C(C)(C)C)cc(C(C)(C)C)c5)ccc4n3)cc2)CC1: 92.3%

Study 3
SMILES: CC(C)S(=O)(=O)c1cc2c(Nc3ccc4sc(C5CCCC5)nc4c3)ccnc2cc1OCCO
Cell line: HT-29
Read-out: necroptosis
Method: CCK-8
With: TNF-α, Smac mimetic, z-VAD
Quantity: cell survival
3.333 µM: 98.1% and 93.1% and 92%
0.00457 µM: 24.3% and 25.2% and 24.2%
0.123 µM: 52% and 45.3% and 47.3%
0.00152 µM: 23.4% and 23.8% and 23.7%

Study 4
Target: HLA class I histocompatibility antigen, B alpha chain, allele B*46:01 (Homo sapiens, UniProt P01889)
Read-out: peptide-MHC binding
Molecule type: peptide
Tested at: concentration not given
Quantity: binding
FSLPAQLL: inactive
KTDEVVTL: inactive
KAFSPEVI: inactive

Study 5
SMILES: CC(C)n1cnc(-c2ccc(F)cc2)c1-c1ncc(C(=O)Nc2ccc(N3CCN(C)CC3)cc2)[nH]1
Method: Phase 2a trial
Refers to: influenza like illness
Species: idiopathic pulmonary fibrosis patients
Quantity: patients with adverse events
60 mg once daily, grade 3 maximum intensity: 0%
dose not given, grade 5 maximum intensity, all arms: 0%
30 mg once daily, grade 3 maximum intensity: 0%
dose not given, grade 4 maximum intensity, all arms: 0%

Study 6
Cell line: mouse MPNST tumor cells
Method: high-content immunofluorescence imaging
Refers to: nuclear SOX9
Tested at: 10 µM
Time: 12 h
Setting: mean of 2 replicates
Baseline: DMSO control
Direction: higher = more nuclear SOX9
Quantity: nuclear SOX9 intensity
NCCc1ccccn1: 98.3 % of DMSO
CCCCCOc1c(OC)ccc2cc(C(=O)NCc3ccc4c(c3)OCO4)c(=O)[nH]c12: 88.3 % of DMSO
C[C@H](N)[C@H](O)c1ccc(O)c(O)c1: 89.5 % of DMSO
N#Cc1c(N)nc(SCC(N)=O)c(C#N)c1-c1ccc(OCC2CC2)cc1: 115 % of DMSO

Study 7
Target: Beta-1 adrenergic receptor (ADRB1, Homo sapiens, UniProt P08588)
Chain of UniProt P08588 (whole entry, looked up): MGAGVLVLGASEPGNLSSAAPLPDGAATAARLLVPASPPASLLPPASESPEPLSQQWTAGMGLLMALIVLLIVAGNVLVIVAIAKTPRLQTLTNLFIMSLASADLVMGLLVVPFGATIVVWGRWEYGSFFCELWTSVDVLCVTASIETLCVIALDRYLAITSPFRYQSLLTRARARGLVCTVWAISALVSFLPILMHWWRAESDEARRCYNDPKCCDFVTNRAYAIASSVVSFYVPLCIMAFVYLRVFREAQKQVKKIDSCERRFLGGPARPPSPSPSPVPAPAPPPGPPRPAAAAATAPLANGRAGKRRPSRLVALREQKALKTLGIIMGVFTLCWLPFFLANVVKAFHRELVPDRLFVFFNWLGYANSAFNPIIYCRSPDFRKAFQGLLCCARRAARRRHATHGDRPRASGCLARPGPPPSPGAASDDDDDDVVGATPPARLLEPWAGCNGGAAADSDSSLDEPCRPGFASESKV
Action: agonist
Quantity: Emax
CC(C)(C)NCC(O)c1cc(Br)c(N)c(Br)c1 (stereo not shown): 99.8%
CC(CCc1ccc(O)cc1)NCC(O)c1ccc(O)cc1 (stereo not shown): 44.1%
CN(c1nc2ccccc2s1)C1CCN(C[C@H](O)COc2ccc(F)c(F)c2)CC1: 52%
CCCN(CCc1cccs1)C1CCc2c(O)cccc2C1 (stereo not shown): 103%
CC(C)(C)NCC(O)c1ccccc1F (stereo not shown): 93.2%

Further values, each from its own experiment
O=c1c2ccccc2nc(-c2ccccc2)n1-c1ccncc1
remaining compound (human, microsomes or S9; 2 µM, 0.5 h): 93.8%

CC(C)(C)c1cc(C=C(C#N)C#N)cc(Br)c1O
viability (HH; 2 µM, 48 h; baseline: untreated): 116%

Cc1cc(C)c(C#N)c(N2C[C@@H]3CCN(C)[C@@H]3C2)n1
remaining compound (human, microsomes or S9; 2 µM, 0.5 h): 71.3%

CCTAACTACTATAGTGACGTGACATAGCTTCGTACAGTCTTGATTCGCTTGACGCTGCTG
fluorescence intensity (Centromere-binding protein 1, full length, N-terminal tag (CBF1, Saccharomyces cerevisiae, UniProt P17106, residues 1-351); protein-binding microarray; double-stranded DNA, one strand shown, in vitro; 0.8 µM, whole 60-bp probe, no competitor; higher = stronger binding): 723 a.u.
